Measurements of several laboratories.
Each numbered part is a random draw from the data of one study; scales do not carry over between parts.
UniProt Q13705, sequence (whole entry, looked up): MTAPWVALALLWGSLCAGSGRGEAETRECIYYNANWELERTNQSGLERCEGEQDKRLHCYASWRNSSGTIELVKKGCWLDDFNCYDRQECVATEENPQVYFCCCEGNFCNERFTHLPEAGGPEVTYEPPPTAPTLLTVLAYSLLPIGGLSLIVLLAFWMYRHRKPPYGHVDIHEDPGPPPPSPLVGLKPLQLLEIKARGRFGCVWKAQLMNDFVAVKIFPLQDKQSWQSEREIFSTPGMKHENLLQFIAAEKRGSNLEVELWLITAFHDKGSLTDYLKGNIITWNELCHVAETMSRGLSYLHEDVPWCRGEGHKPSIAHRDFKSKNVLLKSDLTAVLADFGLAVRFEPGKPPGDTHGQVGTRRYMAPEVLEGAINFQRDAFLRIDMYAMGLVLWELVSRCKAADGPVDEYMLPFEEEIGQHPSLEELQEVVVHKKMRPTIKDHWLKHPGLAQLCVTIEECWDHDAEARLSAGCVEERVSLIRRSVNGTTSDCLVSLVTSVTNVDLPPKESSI
UniProt Q14680, sequence (whole entry, looked up): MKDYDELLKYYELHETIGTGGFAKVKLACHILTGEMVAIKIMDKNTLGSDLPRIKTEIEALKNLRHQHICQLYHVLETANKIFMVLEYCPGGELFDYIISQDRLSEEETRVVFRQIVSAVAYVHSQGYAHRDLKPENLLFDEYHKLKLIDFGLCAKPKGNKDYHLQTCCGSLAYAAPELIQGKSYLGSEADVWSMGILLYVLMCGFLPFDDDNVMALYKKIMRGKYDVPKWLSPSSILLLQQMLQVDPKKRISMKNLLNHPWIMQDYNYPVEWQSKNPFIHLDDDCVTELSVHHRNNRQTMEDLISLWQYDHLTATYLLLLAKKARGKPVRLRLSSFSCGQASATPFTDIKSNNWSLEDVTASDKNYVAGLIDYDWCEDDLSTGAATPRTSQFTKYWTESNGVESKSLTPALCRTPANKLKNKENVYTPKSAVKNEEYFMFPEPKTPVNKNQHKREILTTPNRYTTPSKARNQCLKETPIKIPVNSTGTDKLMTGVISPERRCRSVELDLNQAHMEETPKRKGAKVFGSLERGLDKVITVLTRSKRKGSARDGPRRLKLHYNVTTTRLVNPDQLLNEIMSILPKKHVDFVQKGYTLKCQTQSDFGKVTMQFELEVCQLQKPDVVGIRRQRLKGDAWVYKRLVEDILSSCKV
UniProt P45985, sequence (whole entry, looked up): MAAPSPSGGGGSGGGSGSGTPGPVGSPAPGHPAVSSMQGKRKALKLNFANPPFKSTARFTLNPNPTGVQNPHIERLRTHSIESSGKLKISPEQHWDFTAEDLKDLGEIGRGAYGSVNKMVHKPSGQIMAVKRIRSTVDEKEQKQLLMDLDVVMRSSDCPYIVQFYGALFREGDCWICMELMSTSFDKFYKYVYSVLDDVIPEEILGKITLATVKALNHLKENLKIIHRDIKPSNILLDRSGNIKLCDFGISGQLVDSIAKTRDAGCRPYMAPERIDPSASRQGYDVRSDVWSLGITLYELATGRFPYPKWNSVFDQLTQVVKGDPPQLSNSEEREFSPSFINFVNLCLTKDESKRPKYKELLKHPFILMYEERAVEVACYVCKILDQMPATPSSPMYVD
UniProt Q13237, sequence (whole entry, looked up): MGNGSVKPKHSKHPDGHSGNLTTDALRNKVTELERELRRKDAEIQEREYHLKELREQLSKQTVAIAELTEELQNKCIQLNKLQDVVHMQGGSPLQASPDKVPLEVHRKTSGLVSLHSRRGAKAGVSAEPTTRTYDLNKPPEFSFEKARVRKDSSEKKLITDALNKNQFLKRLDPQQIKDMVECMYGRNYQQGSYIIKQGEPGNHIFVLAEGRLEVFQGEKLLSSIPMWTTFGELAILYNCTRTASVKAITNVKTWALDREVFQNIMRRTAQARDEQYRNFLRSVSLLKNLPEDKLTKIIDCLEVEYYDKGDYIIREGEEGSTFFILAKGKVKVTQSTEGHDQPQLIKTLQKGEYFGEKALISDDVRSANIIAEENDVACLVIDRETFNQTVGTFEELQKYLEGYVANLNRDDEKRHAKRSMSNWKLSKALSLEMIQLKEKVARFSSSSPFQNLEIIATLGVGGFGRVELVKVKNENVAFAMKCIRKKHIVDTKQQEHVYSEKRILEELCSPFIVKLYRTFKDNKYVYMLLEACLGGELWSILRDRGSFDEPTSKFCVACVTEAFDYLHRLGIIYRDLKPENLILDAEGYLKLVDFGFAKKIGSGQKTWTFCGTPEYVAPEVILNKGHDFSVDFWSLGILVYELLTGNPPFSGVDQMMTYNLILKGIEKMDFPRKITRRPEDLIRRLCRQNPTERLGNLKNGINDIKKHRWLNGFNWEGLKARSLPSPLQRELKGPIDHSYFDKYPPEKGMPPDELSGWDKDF
UniProt Q9BXA7, sequence (whole entry, looked up): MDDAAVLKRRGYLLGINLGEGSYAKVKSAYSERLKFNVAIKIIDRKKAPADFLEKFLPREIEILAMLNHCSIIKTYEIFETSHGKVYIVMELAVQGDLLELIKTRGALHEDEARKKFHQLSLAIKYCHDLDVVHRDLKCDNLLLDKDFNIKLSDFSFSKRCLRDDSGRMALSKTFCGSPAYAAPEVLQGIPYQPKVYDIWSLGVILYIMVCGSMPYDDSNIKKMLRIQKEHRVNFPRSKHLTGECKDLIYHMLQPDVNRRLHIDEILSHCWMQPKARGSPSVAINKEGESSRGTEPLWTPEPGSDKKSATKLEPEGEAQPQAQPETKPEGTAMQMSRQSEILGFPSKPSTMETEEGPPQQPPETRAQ
UniProt O75676, sequence (whole entry, looked up): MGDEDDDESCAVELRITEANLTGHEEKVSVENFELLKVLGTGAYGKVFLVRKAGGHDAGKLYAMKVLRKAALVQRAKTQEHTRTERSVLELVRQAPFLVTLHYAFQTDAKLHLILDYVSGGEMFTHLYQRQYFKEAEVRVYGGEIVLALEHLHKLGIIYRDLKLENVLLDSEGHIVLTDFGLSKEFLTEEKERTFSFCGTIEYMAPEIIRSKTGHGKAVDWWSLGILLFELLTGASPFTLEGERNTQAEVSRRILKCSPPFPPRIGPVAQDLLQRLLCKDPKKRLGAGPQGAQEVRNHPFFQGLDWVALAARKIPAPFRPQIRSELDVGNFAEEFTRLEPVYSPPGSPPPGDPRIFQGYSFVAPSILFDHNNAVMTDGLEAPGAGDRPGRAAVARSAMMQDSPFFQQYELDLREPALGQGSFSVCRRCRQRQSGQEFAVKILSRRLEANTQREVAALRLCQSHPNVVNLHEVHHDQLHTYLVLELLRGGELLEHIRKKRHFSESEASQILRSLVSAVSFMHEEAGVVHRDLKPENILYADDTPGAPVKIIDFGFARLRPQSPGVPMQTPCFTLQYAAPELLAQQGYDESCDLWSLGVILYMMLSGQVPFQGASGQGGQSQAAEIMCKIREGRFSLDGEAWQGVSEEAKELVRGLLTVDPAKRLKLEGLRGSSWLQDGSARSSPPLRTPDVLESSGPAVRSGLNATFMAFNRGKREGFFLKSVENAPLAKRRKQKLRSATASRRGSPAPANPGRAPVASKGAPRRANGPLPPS

Study 1
SMILES: CCCCN(CCCC)C(=O)CN1C[C@H](c2cc(OC)c3c(c2)OCO3)[C@@H](C(=O)O)[C@@H]1CC(C)(C)CCC
Read-out: cell-free assay
Method: competition with immobilised ligand
Tested at: 1 µM
Endpoint: remaining binding
STK38L (Homo sapiens, UniProt Q9Y2H1): 100%
HASPIN (Homo sapiens, UniProt Q8TF76): 75.8%
ACVR2B (Homo sapiens, UniProt Q13705): 100%
EIF2AK1 (Homo sapiens, UniProt Q9BQI3): 100%
PTK2 (Homo sapiens, UniProt Q05397): 100%
MINK1 (Homo sapiens, UniProt Q8N4C8): 88.4%
RIOK2 (Homo sapiens, UniProt Q9BVS4): 65.3%
NEK10 (Homo sapiens, UniProt Q6ZWH5): 57.4%
PRKG2 (Homo sapiens, UniProt Q13237): 100%
Tyrosine-protein kinase JAK3, JH1 (JAK3, Homo sapiens, UniProt P52333): 71.3%
FLT1 (Homo sapiens, UniProt P17948): 100%

Study 2
SMILES: O=C(Nc1ccccc1)Nc1cccc(Oc2ccc3nccn3n2)c1
Tested at: 1 µM
Endpoint: remaining binding
MELK (Homo sapiens, UniProt Q14680); competitive binding panel; baseline: vehicle: 100%
RPS6KA4 (Homo sapiens, UniProt O75676); competitive binding scan; N-terminal kinase domain 1: 57%
DAPK1 (Homo sapiens, UniProt P53355); competitive binding panel; baseline: vehicle: 90%
ZAP70 (Homo sapiens, UniProt P43403); competitive binding panel; baseline: vehicle: 100%
MAPKAPK5 (Homo sapiens, UniProt Q8IW41); competitive binding panel; baseline: vehicle: 100%
PIP5K1A (Homo sapiens, UniProt Q99755); competitive binding panel; baseline: vehicle: 91%
TSSK1B (Homo sapiens, UniProt Q9BXA7); competitive binding panel; baseline: vehicle: 100%
EIF2AK4 (Homo sapiens, UniProt Q9P2K8, S808G); competitive binding panel; baseline: vehicle: 86%
PIK3C2B (Homo sapiens, UniProt O00750); competitive binding panel; baseline: vehicle: 100%
MAP3K14 (Homo sapiens, UniProt Q99558); competitive binding; NIK: 93%
MAP2K4 (Homo sapiens, UniProt P45985); competitive binding panel, measured: MEK4; baseline: vehicle: 100%
MAPKAPK2 (Homo sapiens, UniProt P49137); competitive binding panel; baseline: vehicle: 100%
PIK3CA (Homo sapiens, UniProt P42336, H1047Y); competitive binding panel; baseline: vehicle: 98%
EPHA6 (Homo sapiens, UniProt Q9UF33); competitive binding panel; baseline: vehicle: 100%

Study 3
Target: Calcium/calmodulin-dependent protein kinase type II subunit alpha (CAMK2A, Homo sapiens, UniProt Q9UQM7)
UniProt Q9UQM7, sequence (whole entry, looked up): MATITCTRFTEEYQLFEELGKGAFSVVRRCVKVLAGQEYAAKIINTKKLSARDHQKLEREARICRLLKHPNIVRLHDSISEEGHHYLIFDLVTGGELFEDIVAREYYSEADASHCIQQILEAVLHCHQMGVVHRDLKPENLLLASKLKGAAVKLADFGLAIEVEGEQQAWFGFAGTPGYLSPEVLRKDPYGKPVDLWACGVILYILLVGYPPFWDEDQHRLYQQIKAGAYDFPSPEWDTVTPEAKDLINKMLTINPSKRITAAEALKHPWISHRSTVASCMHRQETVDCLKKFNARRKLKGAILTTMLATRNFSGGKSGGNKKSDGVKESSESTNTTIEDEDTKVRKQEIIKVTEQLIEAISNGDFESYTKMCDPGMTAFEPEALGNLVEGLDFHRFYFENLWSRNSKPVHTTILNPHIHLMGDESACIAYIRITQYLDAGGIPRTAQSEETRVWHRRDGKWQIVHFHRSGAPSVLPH
Read-out: enzyme activity
Mode: inhibitor
Tested at: 10 µM
Endpoint: inhibition
O=C(O)[C@H]1CSC(c2nc3ccc(O)cc3s2)=N1: -16%
O=C1NCC2(CCN(CCc3ccccc3)CC2)O1: -3%
COc1ccccc1OCCNCC(O)COc1cccc2[nH]c3ccccc3c12 (centres unmarked): -9%
Cc1c(OCC(F)(F)F)ccnc1C[S+]([O-])c1nc2ccccc2[nH]1 (centres unmarked): -3%
CN(C)[C@@H](CCOc1cccc2ccccc12)c1ccccc1: -5%
O[C@H]1[C@H](O)[C@@H](O)[C@H](O)[C@@H](O)[C@@H]1O: 52%
NC(=O)[C@@H](N)Cc1c[nH]c2ccccc12: 2%
CCCC[C@H](NC(=O)[C@@H]1[C@@H]2[C@H](CN1C(=O)[C@@H](NC(=O)NC1(CS(=O)(=O)C(C)(C)C)CCCCC1)C(C)(C)C)C2(C)C)C(=O)C(=O)NC1CC1: -10%
c1ccc(CSSCc2ccccc2)cc1: -19%
O=C[C@H](O)[C@@H](O)[C@H](O)[C@H](O)CO[C@H]1O[C@H](CO[C@H]2O[C@H](CO)[C@@H](O)[C@H](O)[C@H]2O)[C@@H](O)[C@H](O)[C@H]1O: -3%

Study 4
Target: Serine/threonine-protein kinase BRSK2 (BRSK2, Homo sapiens, UniProt Q8IWQ3)
UniProt Q8IWQ3, sequence (whole entry, looked up): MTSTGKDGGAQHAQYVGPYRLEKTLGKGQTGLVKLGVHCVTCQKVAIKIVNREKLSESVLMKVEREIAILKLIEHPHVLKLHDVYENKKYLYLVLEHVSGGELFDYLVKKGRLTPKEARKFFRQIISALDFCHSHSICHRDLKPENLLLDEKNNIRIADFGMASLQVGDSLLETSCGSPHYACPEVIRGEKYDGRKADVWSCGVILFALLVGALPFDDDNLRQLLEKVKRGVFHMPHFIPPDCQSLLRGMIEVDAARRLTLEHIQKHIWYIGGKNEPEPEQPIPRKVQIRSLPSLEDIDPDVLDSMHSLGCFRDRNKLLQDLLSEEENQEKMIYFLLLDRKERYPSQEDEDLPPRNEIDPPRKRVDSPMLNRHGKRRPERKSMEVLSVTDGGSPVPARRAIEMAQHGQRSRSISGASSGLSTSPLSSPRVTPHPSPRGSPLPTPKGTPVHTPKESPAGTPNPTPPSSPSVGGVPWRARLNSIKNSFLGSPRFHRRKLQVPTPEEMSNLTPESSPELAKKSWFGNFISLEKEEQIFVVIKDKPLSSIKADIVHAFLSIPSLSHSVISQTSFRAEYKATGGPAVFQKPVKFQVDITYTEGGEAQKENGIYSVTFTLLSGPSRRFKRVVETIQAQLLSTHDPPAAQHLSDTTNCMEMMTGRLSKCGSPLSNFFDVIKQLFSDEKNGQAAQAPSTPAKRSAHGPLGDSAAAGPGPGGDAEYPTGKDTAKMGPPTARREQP
Read-out: enzyme activity
Mode: inhibitor
Tested at: 0.5 µM
Baseline: control
Endpoint: remaining activity
Cc1ccc(NC(=O)c2ccc(CN3CCN(C)CC3)cc2)cc1Nc1nc(-c2cccnc2)cs1: 99.9%
COc1ccc(C(=O)Nc2sc3c(c2C(N)=O)CCCC3)cc1OC: 97.9%
CCOC(=O)c1c(C)[nH]c(/C=C2\C(=O)Nc3ccccc32)c1C: 98.7%
COc1ccc(OC)c2c(=S)c3ccccc3[nH]c12: 92.5%
CC(C)[C@H](CO)Nc1nc(Nc2cc(N)cc(Cl)c2)c2ncn(C(C)C)c2n1: 88.2%
CO[C@H]1C[C@@H]2CC[C@@H](C)[C@@](O)(O2)C(=O)C(=O)N2CCCC[C@H]2C(=O)O[C@H]([C@H](C)C[C@@H]2CC[C@@H](O)[C@H](OC)C2)CC(=O)[C@H](C)/C=C(\C)[C@@H](O)[C@@H](OC)C(=O)[C@H](C)C[C@H](C)/C=C/C=C/C=C/1C: 109%
Nc1ccc2ncnc(NCCc3ccc(Oc4ccccc4)cc3)c2c1: 102%
N#CC(C#N)=C(N)/C(C#N)=C/c1ccc(O)cc1: 101%
C#Cc1cccc(Nc2ncnc3cc(OCCOC)c(OCCOC)cc23)c1: 100%
NCCNc1ncc(C(N)=O)c(Nc2cccc(C(F)(F)F)c2)n1: 96.9%
O=C1NC(=O)C(c2cn(CCCO)c3ncccc23)=C1c1cnccn1: 90.4%
COc1ccc(CNC(=O)Nc2ncc([N+](=O)[O-])s2)cc1: 93.1%
O=c1c2ccccc2[nH]c(=S)n1CCN1CCC(=C(c2ccc(F)cc2)c2ccc(F)cc2)CC1: 99.8%
Nc1ncnc2n[nH]c(Nc3ccc(F)cc3)c12: 60.6%
Cn1sc(=O)n(Cc2ccccc2)c1=O: 99.4%

Excerpt of the above (study 1):
RIOK2 (Homo sapiens, UniProt Q9BVS4): 65.3%
NEK10 (Homo sapiens, UniProt Q6ZWH5): 57.4%
PRKG2 (Homo sapiens, UniProt Q13237): 100%
Tyrosine-protein kinase JAK3, JH1 (JAK3, Homo sapiens, UniProt P52333): 71.3%
